Results of several laboratories.
Each line is one published result; not all experiments were run side by side. ± gives the spread as reported.
Chain of UniProt O75469 (whole entry, looked up): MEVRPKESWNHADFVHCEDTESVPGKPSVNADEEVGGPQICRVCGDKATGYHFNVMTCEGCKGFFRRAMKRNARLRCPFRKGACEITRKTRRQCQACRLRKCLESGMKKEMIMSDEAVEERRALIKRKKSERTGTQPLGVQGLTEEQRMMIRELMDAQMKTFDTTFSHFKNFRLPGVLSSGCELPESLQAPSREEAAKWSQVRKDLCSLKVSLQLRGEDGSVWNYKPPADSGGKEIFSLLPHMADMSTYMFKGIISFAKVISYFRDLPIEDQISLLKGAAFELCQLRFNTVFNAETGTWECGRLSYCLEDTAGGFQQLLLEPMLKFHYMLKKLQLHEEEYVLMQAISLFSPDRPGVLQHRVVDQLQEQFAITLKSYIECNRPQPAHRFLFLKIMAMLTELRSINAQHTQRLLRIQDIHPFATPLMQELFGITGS

With `TYGPVFMCL` the Tm was 64.9 ± 0.1 °C (HLA-A24 complex with compound; nanoDSF; peptide; pH 7.6, 2 µM complex).
`DPDPE` has a retention time of 8.54 min (RP-HPLC; HALO Phenyl-hexyl column; 25 µM, acetic acid/methanol, 10 min gradient).
The hypocotyl length of `aspterric acid` is reported as 0.736 cm (Arabidopsis thaliana Col-0 seeds; 6.25 µg/mL, seed germination).
`Ac-LRKLRKRLLRDWLKAFYDKVAEKLKEAF-NH2 (N-acetyl, C-amide)` has a cell-associated peptide of 56 ± 1.3% (THP-1 derived macrophages; peptide; 2 h pulse, 120 min chase, heparin wash).
`QAKTFLDKFNHEAEDLFYQ` gave a beta-turn content of 13.1% (circular dichroism; peptide, water/TFE 1:1 v/v; 200 µM, 25 °C).
The CC50 of `calpain inhibitor III` is reported as > 2.5 µM (Huh-7-ACE2; cell viability).
`abamectin`: activity “inactive” (Nuclear receptor subfamily 1 group I member 2 (NR1I2, Homo sapiens, UniProt O75469); concentration not given).
With `heparin sodium` the elevated neutrophil was 0% (healthy Chinese adult volunteers; continuous intravenous infusion, 8 IU/kg/h, 5 days).
`Polymyxin B` has an NGAL level of 37 ng/mL (mouse, urine; 20 mg/kg).
The cell viability of `benzalkonium chloride` is reported as ~40% (PC-12; CCK-8; 10 µM, light-degraded residues of compound, with: sunlight 100 mW/cm^2 for 4 h).
`capreomycin sulfate` has a Tmax of 21.4 min (guinea pig, serum; insufflation, dose not given, dry powder combination single dose).
The fold change of `insulin human` is reported as 1.04 (refers to: NIT2 mRNA; uninfected mouse, brain; i.p., dose not given; baseline: PBS).
With `verteporfin` the CC50 was 5.23 ± 0.22 µM (Vero E6; WST-1).
